Results collected from several papers.
A part holds a random share of what one study measured.

Study 1
Target: Centromere-binding protein 1, full length, His-tagged (CBF1, Saccharomyces cerevisiae, UniProt P17106, residues 1-351)
Chain of UniProt P17106 (whole entry, looked up): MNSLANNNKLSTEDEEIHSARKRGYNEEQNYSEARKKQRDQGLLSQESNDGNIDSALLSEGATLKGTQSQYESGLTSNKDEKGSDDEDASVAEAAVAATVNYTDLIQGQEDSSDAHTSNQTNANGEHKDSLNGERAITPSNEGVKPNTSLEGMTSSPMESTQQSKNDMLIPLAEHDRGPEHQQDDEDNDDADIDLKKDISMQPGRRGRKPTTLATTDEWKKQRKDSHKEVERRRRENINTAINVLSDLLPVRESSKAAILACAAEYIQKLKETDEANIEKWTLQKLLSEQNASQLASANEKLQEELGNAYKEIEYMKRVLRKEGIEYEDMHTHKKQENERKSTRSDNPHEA
Method: competition protein-binding microarray
Molecule type: double-stranded DNA, one strand shown
Matrix: in vitro
Concentration: 2 µM
Setting: whole 60-bp probe, lowest competitor level
Together with: Pho4 competitor, 0.05 µM
Direction: higher = stronger binding
All sequences stand within: … GTCTTGATTCGCTTGACGCTGCTG
Oligonucleotide	fluorescence intensity
CATACCCAACCTTGACATGTGGGTGAAGATATTTGT	94.2 a.u.
ACAAATACGAGCTTGCGCGTGTAGGTTAATCAGTTC	83.8 a.u.
CTAACGAAGGTTTGTTGTGTGGGTGACAAGCCAAGT	87.5 a.u.
TCTGTTATTGCTGATCGCGTGGCCGTTAAATTGGTT	231 a.u.
CCACCCCAATTCCATCACGTCCATACCAGGGGCGTA	78.9 a.u.
TGTCCGACAGCCCATCACGCAGAGCAAGTTTAAGAC	88.8 a.u.
GGGGACTCTAACCGTCACGTTGGTTTGGGTATCAAG	262 a.u.
TCTTCGTTGTCTACCCACGCTCTTCCGGACCCTCTT	48.8 a.u.

Study 2
Target: RNA binding protein fox-1 homolog 2, RRM domain, GST-SBP tag (RBFOX2, Homo sapiens, UniProt O43251-10, residues 100-194)
Method: RNA Bind-n-Seq
Molecule type: RNA
Matrix: in vitro
Concentration: 365 nM
Setting: natural RNA segment, single round, ends assumed
Reference: no-protein control
Direction: higher = stronger binding
All sequences stand within: GGGAGUUCUACAGUCCGACGAUC … UGGAAUUCUCGGGUGCCAA
Construct (chain): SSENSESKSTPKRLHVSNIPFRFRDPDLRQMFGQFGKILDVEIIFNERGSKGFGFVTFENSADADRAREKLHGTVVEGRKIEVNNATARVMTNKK
Oligonucleotide	RBNS enrichment (R)
AGUUUGACCUGUUUAGUGUAUUCUGGGCCGAGUCUCUGAAGCAGGAGCAGAGCACACUCCCGGGAUUCAGGGACAUGGUCCUCACAGCUCGGAAGUAGCUCUAGUCCUGC	0.236
CUCAUUUGGUUUGAUUUUCCCUCUACUAAGGCUUUCCUACCUUCUUCAGGCUGCCUAAGACAUGUAACGAAACACUUCAAUAAUUGUCCAUGAGGAGAAAAAAAGCAUGU	0.934
UGUGAGGAGCUGCUGGCUUGCAGUGCGCGUGCACGUGGAGAGCUGGUGCCCGGAGAUUGGACGGCCUGAUGCUCCCUCCCCUGCCCUGGUCCAGGGAAGCUGGCCGAGGG	0.365
UCUGCCUCUGACACACCCUUCUCGCUGCCCUGAGCCCCGGAGGCAGCCAUGGGAGGCAGCCUGCAUACCUGGAAGCCAGCUGCACAGUGCUGUGGGGAAACAGAAGCGUU	0.378
AAGGGAGCACCCUGUUCCUAGACAGAUGGAGAGGCGUAUCCAUGUUUUCCUACAUAAUGUGGUUAAAACUUGAAUUUGUGCUUCAGCUCUUCUGUACUUCUUCCUUCCUA	0.211
UUUUCUCUUUAGGUGACUGUUUAAGAAAUUUGUGUGCAUAGUUACUCAGUUUUUAUGAACUGUUGUAUCCUGUUAAUGCAUAUUGCUCUGUGACUCCAGUAUAUCUUACC	0.351
CCCCCUUCACUCUGCCUUCCUGAGUUGGCCCCACUCUGCACGGGAGGGAGGGCCCACCUUAGACUGCUGGGGAGAGGCCACAGGGCUGGGGGCCAGGUCCGGCCAGCUGU	1.24
CCUCUCUUUGCUAAAGCAGUGAAGGAAGAGAACAGAGACAAACUCUUUGGACUGUGAAAGAGAAGGUAGAGAAUUCCAGGCAACAGUCUGACCAAGGGUGUAAACCAGUU	0.506

Study 3
Target: Sal-like protein 4, full length isoform A (SALL4, Homo sapiens, UniProt Q9UJQ4, residues 1-1053)
Chain of UniProt Q9UJQ4 (whole entry, looked up): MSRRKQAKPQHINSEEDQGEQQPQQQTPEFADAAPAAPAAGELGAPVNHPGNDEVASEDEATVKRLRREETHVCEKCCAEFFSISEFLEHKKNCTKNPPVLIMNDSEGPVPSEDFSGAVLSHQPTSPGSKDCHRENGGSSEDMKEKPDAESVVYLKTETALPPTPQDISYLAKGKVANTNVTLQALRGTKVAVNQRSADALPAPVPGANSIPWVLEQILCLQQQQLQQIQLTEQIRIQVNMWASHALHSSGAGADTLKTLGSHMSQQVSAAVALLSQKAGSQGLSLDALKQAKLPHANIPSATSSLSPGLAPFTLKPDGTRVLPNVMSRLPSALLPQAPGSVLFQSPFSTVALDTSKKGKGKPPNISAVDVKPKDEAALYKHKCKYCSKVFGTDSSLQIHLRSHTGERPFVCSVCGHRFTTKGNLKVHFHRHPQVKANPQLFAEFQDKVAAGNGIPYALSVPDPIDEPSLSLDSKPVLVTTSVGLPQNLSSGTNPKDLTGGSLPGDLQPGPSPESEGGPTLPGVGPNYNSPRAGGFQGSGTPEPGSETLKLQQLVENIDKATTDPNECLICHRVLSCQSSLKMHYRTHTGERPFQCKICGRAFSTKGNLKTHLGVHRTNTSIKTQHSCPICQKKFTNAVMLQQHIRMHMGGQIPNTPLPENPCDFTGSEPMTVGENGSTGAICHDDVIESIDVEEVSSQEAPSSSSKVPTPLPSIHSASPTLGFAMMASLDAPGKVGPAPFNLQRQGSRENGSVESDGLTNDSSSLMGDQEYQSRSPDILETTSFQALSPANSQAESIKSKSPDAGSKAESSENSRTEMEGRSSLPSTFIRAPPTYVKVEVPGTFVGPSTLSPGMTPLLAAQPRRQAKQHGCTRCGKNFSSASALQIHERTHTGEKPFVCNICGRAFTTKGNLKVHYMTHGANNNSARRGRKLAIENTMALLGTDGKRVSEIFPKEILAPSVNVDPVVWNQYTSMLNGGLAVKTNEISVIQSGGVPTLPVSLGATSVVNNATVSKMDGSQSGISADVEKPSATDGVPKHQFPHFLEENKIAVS
Method: universal PBM
Molecule type: double-stranded DNA, one strand shown
Matrix: in vitro
Concentration: 600 nM
Setting: 8-mer, flanks averaged, mean of replicates
Direction: higher = stronger binding
Oligonucleotide	E-score
GCCCAACC	-0.07
TCTCCAAA	0.2
CGAGGTGA	0.00628
CCAAAACA	0.152
GGGGTGAA	-0.169
CTCTCACC	-0.177
AAATACCC	0.0103
CAAGTGTC	-0.0145

Single results of other studies
Structure (SMILES)	cell line	test	setting	how to read	quantity	value
COc1ccc(-c2ccc(=N)n(CCCC(=O)O)n2)cc1	mouse MPNST tumor cells	high-content immunofluorescence imaging, refers to: nuclear SOX9	10 µM, 12 h, mean of 2 replicates	reference: DMSO control, higher = more nuclear SOX9	nuclear SOX9 intensity	94.3 % of DMSO

Repeated from above (study 2):
Oligonucleotide	RBNS enrichment (R)
AAGGGAGCACCCUGUUCCUAGACAGAUGGAGAGGCGUAUCCAUGUUUUCCUACAUAAUGUGGUUAAAACUUGAAUUUGUGCUUCAGCUCUUCUGUACUUCUUCCUUCCUA	0.211
UUUUCUCUUUAGGUGACUGUUUAAGAAAUUUGUGUGCAUAGUUACUCAGUUUUUAUGAACUGUUGUAUCCUGUUAAUGCAUAUUGCUCUGUGACUCCAGUAUAUCUUACC	0.351
